Published values collected from several papers.
Each line is one published result; not all experiments were run side by side. ± marks the error that the study gave.

Structure (SMILES)	test	test system	conditions	renal clearance
CN(C)C(=O)c1cc2cnc(Nc3ccc(N4CCNCC4)cn3)nc2n1C1CCCC1		human, severe renal impairment, plasma and urine	oral, 400 mg, geometric mean	18.7 mL/min
NC[C@@]1(CC(=O)O)[C@@H]2CC[C@H]3C[C@@H]2[C@@H]1C3		human, moderate renal impairment, urine	oral, 20 mg single dose	62.2 ± 17.2 mL/min
Cc1cc(-c2nccc3c2ccn3CC(=O)Nc2ccc(-c3cnccn3)cn2)ccn1		human, plasma and urine	oral, 15 mg once daily, day 1, geometric mean	5.85 mL/min
CN[C@@H]1COc2c(S(=O)(=O)NC(=O)Nc3c4c(cc5c3CCC5)CCC4)cnn2C1		human, urine	oral, 300 mg twice daily, 0-12 h, day 7	8.1 mL/min
C[C@@H](Oc1ccc(S(C)(=O)=O)cc1C(=O)N1C[C@@H]2C[C@]2(c2cc(C(F)(F)F)on2)C1)C(F)(F)F		young healthy humans, plasma and urine	oral, 50 mg, 0 to 24 h, single dose	5.64 mL/min
CC(C)n1c(C2CCNCC2)nc2c([N+](=O)[O-])c(Br)c(Br)cc21		human	oral, 125 mg single dose, mean	12.7 mL/min
CC(=O)N(C)[C@H]1CCN(C(=O)c2cnc3c(c2)C[C@](C)(c2ccc(F)cc2)N3)C1		human, male, urine	oral, 60 mg once daily, 0-48 h, steady state, geometric mean	168 mL/min
O=C(c1nc2n(n1)[C@H](c1ccccc1)C[C@@H]2F)C1CC1		human	5 mg single dose, geometric mean	0.138 mL/min
C[C@H](O)c1cc(C(=O)N[C@@H](C)Cn2ccc(-c3ccc(C#N)c(Cl)c3)n2)n[nH]1	measured: darolutamide	human, fasted	oral, 300 mg darolutamide tablet, geometric mean	5.99 mL/min
Cn1cc(-c2cn3nccc3c(-c3cnn([C@]4(CC#N)C[C@@H](C#N)C4)c3)n2)cn1		healthy human	200 mg twice daily, day 10	21.7 mL/min
Cl.[2H]C([2H])([2H])CC(=O)c1cnc(NC(=O)C2CC2)cc1Nc1cccc(-c2ncn(C([2H])([2H])[2H])n2)c1OC		human, fasted	oral, 20 mg, once daily multiple dose, mean incl. outlier	3.4 mL/min

Repeated from above:
Structure (SMILES)	test	test system	conditions	renal clearance
NC[C@@]1(CC(=O)O)[C@@H]2CC[C@H]3C[C@@H]2[C@@H]1C3		human, moderate renal impairment, urine	oral, 20 mg single dose	62.2 ± 17.2 mL/min
Cc1cc(-c2nccc3c2ccn3CC(=O)Nc2ccc(-c3cnccn3)cn2)ccn1		human, plasma and urine	oral, 15 mg once daily, day 1, geometric mean	5.85 mL/min
